Measurements collected from several papers.
Each line is one published result; not all experiments were run side by side. Several values in a cell are separate wells, animals, samples, runs or records. ± marks the error that the study gave.
UniProt Q969G3, sequence (whole entry, looked up): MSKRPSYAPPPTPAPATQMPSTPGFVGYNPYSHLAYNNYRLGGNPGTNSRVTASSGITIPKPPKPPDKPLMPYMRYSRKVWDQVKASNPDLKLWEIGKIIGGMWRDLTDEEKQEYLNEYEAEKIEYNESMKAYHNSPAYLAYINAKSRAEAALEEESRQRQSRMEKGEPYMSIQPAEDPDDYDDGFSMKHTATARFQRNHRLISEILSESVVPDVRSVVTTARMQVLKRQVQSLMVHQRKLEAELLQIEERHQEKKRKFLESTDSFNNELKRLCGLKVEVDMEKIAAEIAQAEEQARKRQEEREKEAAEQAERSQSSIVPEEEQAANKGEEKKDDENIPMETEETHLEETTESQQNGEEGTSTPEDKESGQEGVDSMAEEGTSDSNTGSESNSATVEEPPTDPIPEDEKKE
UniProt Q9BYT3, sequence (whole entry, looked up): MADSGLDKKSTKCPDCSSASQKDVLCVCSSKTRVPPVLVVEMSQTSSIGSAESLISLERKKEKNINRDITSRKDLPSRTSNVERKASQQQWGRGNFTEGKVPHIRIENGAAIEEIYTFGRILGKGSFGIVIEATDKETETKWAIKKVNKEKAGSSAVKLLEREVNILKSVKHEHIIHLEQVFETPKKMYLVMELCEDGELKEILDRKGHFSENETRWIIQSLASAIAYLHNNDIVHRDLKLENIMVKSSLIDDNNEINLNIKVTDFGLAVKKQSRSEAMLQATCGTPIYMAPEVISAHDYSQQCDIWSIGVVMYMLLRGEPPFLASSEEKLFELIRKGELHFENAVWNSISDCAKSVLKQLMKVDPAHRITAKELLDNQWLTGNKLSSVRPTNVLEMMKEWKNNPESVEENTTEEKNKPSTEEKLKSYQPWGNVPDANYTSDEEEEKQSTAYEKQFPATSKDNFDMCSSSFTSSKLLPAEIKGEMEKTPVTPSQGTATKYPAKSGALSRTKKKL
UniProt P22309, sequence (whole entry, looked up): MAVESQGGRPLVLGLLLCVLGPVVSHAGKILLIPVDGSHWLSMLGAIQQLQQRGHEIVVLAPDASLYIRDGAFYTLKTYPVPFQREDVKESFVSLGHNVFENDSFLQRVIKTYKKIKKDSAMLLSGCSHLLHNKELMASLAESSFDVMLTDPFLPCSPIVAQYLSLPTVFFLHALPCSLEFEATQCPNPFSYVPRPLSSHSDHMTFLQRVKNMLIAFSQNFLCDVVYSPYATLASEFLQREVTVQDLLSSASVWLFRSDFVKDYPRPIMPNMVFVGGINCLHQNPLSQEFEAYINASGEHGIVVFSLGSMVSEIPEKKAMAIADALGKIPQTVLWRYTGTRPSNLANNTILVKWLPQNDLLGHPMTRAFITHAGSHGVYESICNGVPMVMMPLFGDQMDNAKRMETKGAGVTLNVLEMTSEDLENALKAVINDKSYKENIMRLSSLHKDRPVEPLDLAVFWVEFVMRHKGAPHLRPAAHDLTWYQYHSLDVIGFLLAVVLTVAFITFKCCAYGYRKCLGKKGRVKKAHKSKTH
UniProt P08684, sequence (whole entry, looked up): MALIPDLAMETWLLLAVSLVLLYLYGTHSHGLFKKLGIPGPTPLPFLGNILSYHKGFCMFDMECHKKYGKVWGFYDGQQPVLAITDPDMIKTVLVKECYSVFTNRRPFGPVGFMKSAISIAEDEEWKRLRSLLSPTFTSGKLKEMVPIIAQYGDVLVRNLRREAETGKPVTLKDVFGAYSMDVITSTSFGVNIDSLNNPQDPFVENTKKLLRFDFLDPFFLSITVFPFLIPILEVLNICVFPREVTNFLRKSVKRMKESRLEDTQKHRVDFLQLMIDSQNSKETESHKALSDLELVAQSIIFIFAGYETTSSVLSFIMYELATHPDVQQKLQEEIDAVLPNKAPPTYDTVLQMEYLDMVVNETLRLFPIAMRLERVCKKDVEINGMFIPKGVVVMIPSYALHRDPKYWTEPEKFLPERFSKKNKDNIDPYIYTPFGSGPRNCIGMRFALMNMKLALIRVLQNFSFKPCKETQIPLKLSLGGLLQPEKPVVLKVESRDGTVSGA
UniProt P41143, sequence (whole entry, looked up): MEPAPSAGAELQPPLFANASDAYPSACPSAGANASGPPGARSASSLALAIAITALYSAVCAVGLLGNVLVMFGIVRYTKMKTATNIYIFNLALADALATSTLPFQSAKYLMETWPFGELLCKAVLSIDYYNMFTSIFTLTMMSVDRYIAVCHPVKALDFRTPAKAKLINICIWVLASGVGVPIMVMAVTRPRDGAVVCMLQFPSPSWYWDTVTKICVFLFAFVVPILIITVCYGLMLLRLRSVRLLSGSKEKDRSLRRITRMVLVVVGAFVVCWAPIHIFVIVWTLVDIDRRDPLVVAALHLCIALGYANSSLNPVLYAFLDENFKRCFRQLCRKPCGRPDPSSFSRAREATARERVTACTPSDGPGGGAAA

| Compound | tested on | assay | system | setting | scale | measurement | value |
| --- | --- | --- | --- | --- | --- | --- | --- |
| CC(=O)OC[C@H]1O[C@@H](Oc2cc(O)cc3cc4oc(C)cc(=O)c4c(O)c23)[C@H](O)[C@@H](O)[C@@H]1O | HepaRG co-cultured with HK-2 | MTT | – | 33.33 µM, 48 h | relative to: untreated control | cell viability | 96.6 ± 22.9% |
| CC(=O)N1CCC(C(=O)N2CCN3C(=O)c4cc(-c5ccccc5)ccc4NC(=O)C3C2)CC1 (stereo not shown) | Salmonella typhimurium | – | TA1537 | 15.8 µg/plate, added: rat liver S9 | relative to: vehicle | fold increase in revertants | 1.4 |
| Oc1ccc2c3c1O[C@H]1[C@@H](O)CC[C@@]4(O)[C@@H](C2)N(CC2CCC2)CC[C@]314 | LPAR5 (Homo sapiens, UniProt Q9H1C0) | β-arrestin recruitment, TANGO luminescence, refers to: GPR92 | – | concentration not given | relative to: basal luminescence | log2 fold change | 0.284 |
| COc1cc(CCC[P+](c2ccccc2)(c2ccccc2)c2ccccc2)c(OC)c2c1OCO2.[I-] | SK-MEL-2 | SRB | – | – | – | TGI | -4.98 log M |
| OC(CCN1CC=C(c2ccc(F)cc2)CC1)c1ccc(F)c2ccccc12 (stereo not shown) | Salmonella typhimurium | SOS/umu test | TA1535/pSK1002 | 0.125 mg/mL, 4 h, without S9, lower range | – | survival | 77.6% |
| CN1CCN(c2cc(-c3ccncc3)c(-c3ccc4ccccc4c3)nn2)CC1 | OPRD1 (Homo sapiens, UniProt P41143) | antagonist, FLIPR | – | 10 µM | – | inhibition | 6.1% |
| C#Cc1ccc2c(c1)C(c1ccccn1)=NCc1c(-c3cnco3)ncn1-2.Cl | – | thermodynamic equilibrium, UV | methanol | 24 h, 25 °C | – | solubility | 4650 µg/mL |
| CC1(C)[C@H](C=C(Cl)Cl)[C@H]1C(=O)OCc1cccc(Oc2ccccc2)c1 | human microsomal CES1 | IVIVE from expressed enzymes | human, 5 years old, expressed human CES1 | 0.1 µM | relative to: total hepatic CLint in vivo | relative enzyme contribution | 50.2% |
| O=C1c2ccccc2C(=O)c2ccccc21 | HepaRG co-cultured with HK-2 | MTT | – | 33.33 µM, 24 h | relative to: untreated control | cell viability | 85.3 ± 3.68% |
| [Cl-].[Cl-].[Pt+2].[Ru+2].c1ccc(-c2nc3cc4ccccc4cc3nc2-c2ccccn2)nc1.c1cnc2c(c1)ccc1cccnc12.c1cnc2c(c1)ccc1cccnc12 | Danio rerio | – | embryos | 15 µM, 0 h | – | survival rate | 100% |
| CC1(C)C(C=C(Cl)Cl)C1C(=O)OC(C#N)c1ccc(F)c(Oc2ccccc2)c1 (stereo not shown) | human microsomal CES1 | IVIVE from expressed enzymes | human, liver, in vivo scaled | 0.1 µM, age-specific | – | enzyme contribution to CLint | 57% |
| COc1ccc(-n2nc(C(C)=O)s/c2=N\N=C(/C)c2ccc(NC(C)=O)cc2)cc1 | MCF7 | – | – | 0.156 µM | – | viability | 19.3% |
| C[C@H]1CN(c2n[nH]c3nc(N[C@H]4CC[C@H](NS(=O)(=O)CCC(F)(F)F)CC4)ncc23)CCO1 | SWI/SNF-related matrix-associated actin-dependent regulator of chromatin subfamily E member 1 (Homo sapiens, UniProt Q969G3) | Kinobeads competition, refers to: SMARCE1 | – | 0.8 µM, unit not given | relative to: vehicle | remaining binding | 1.41 |
| COc1ccc(N2C(=O)N(c3c(C)cccc3Cl)Cc3cnc(Nc4ccc(C5CCN(C)CC5)cc4OC)nc32)nc1 | STK33 (Homo sapiens, UniProt Q9BYT3) | kinase activity | – | 0.5 µM | – | inhibition | 5.68% |
| COc1cccc(-c2n[nH]c(SCc3ccccn3)n2)c1OC | Escherichia coli | Ames test, plate incorporation | WP2 uvrA | 5.0 mg/plate, without S9 | – | revertant colonies per plate | 25 |
| COc1cc2ncnc(Nc3cccc(Cl)c3)c2cc1OC | HaCaT | – | – | 11.11 µM, 60 h | – | viability | 83.7% and 87.2% and 87.8% |
| [Cl-].[Cl-].[Pt+2].[Ru+2].c1ccc(-c2nc3ccccc3nc2-c2ccccn2)nc1.c1cnc2c(c1)ccc1cccnc12.c1cnc2c(c1)ccc1cccnc12 | Danio rerio | – | embryos | 75 µM, 48 h | – | survival rate | 63.3 ± 4.4% |

| Compound | tested on | assay | system | setting | scale | measurement | value |
| --- | --- | --- | --- | --- | --- | --- | --- |
| CC[C@H](C)[C@H](NC(=O)[C@H](Cc1ccccc1)NC(=O)[C@H](CCC(=O)O)NC(=O)[C@H](CCCNC(=N)N)NC(=O)[C@H](C)NC(=O)[C@H](C)NC(=O)[C@H](CCC(N)=O)NC(=O)[C@H](CCC(=O)O)NC(=O)[C@H](CCC(=O)O)NC(=O)[C@H](CC(C)C)NC(=O)[C@H](Cc1ccc(O)cc1)NC(=O)[C@H](CO)NC(=O)[C@H](CO)NC(=O)[C@@H](NC(=O)[C@H](CC(=O)O)NC(=O)[C@H](CO)NC(=O)[C@@H](NC(=O)[C@H](Cc1ccccc1)NC(=O)[C@@H](NC(=O)CNC(=O)[C@H](CCC(=O)O)NC(=O)[C@H](C)NC(=O)CCc1c[nH]cn1)[C@@H](C)O)[C@@H](C)O)C(C)C)C(=O)N[C@@H](C)C(=O)N[C@@H](Cc1c[nH]c2ccccc12)C(=O)N[C@@H](CC(C)C)C(=O)N[C@H](C(=O)N[C@@H](CCCNC(=N)N)C(=O)NCC(=O)N[C@@H](CCCNC(=N)N)C(=O)N[C@@H](CCCCNC(=O)COCCOCCNC(=O)COCCOCCNC(=O)CC[C@H](NC(=O)CCCCCCCCCCCCCCCCC(=O)O)C(=O)O)C(=O)NCC(=O)NCC(=O)N[C@@H](CO)C(=O)N[C@@H](CCCCNc1c(NCCCCCN(O)C(=O)CCC(=O)NCCCCCN(O)C(=O)CCC(=O)NCCCCCN(O)C(C)=O)c(=O)c1=O)C(=O)O)C(C)C [zirconium-89 labelled] | – | gamma counting | rat, stomach-duodenum content | subcutaneous, 3 nmol/kg, 168 h | – | tissue uptake | 0.04 %ID/g |
| CN[C@]1(c2ccccc2Cl)CCCCC1=O | UGT1A1 (Homo sapiens, UniProt P22309) | enzyme activity | – | 30 µM | – | inhibition | 2% |
| C[C@@H](O)[C@@H](CO)NC(=O)[C@@H](CCCNC(=N)N)NC(=O)[C@@H]1CCCN1C(=O)[C@@H]1CSSC[C@H](NC(=O)[C@H](Cc2ccccc2)NC(=O)CN2CCN(CC(=O)O)CCN(CC(=O)O)CCN(CC(=O)O)CC2)C(=O)N[C@@H](Cc2ccc(O)cc2)C(=O)N[C@@H](Cc2ccccc2)C(=O)N[C@@H](CCC(N)=O)C(=O)N[C@@H](CC(N)=O)C(=O)N1 [gallium-68 labelled] | – | – | healthy Wistar rat, small intestine | intravenous, 8 MBq, 30 min | – | tissue uptake | 0.18 %ID/g |
| COc1ncnn2ccc(-c3cnc4nc(C)n(Cc5nnc([C@@H](C)F)o5)c4c3)c12 | – | – | human | oral, dose not given, grade 3 | – | patients with malaise | 7.1% |
| CC[C@H](C)[C@@H]1NC(=O)[C@@H]2CCCN2C(=O)[C@H](CC(C)C)NC(=O)[C@H](CC(C)C)NC(=O)CNC(=O)[C@@H](NC(=O)[C@@H](NC(=O)[C@H](CC(=O)O)NC(=O)CNC(=O)[C@@H](NC(=O)[C@H](C)NC(=O)CNC(=O)[C@H](CCCCN)NC(=O)[C@H](CC(C)C)NC(=O)[C@H](CC(C)C)NC(=O)[C@H](CCCCN)NC(=O)CNC(=O)[C@@H](NC(=O)[C@@H](N)CC(C)C)C(C)C)C(C)C)C(C)C)CSSC[C@@H](C(=O)O)NC1=O | – | RNA-seq, refers to: Lyrm7 | mouse, traumatic brain injury model, frontal cortex and hippocampus | dose not given | relative to: TBI alone | log2 fold change | 1.24 |
| CN/C(=N\[N+](=O)[O-])NCc1cnc(Cl)s1 | – | – | soil | 28 days, nominal 0.12 | – | concentration | 0.04 mg/kg dry soil |
| Cc1cc(C(=O)NC(C)(C)COc2cccc3c2C(N)=NS(=O)(=O)N3)cc(C)n1 | Escherichia coli | Ames test, initial | WP2 uvrA | 1.50 µg/plate | relative to: solvent control | revertant ratio | 1.1 |
| COc1ccc2c(c1OC)C(=O)c1c(cc(C)c(O)c1OC)C2=O | HK-2 co-cultured with HepaRG | MTT | – | 16.67 µM, 24 h | relative to: untreated control | cell viability | 98.3 ± 10.3% |
| Cc1ncc2n1-c1ccc(Cl)cc1C(c1ccccc1F)=NC2 | Cytochrome P450 3A4 (CYP3A4, Homo sapiens, UniProt P08684) | – | human, plasma | oral, 2 mg, day 1, alone, arithmetic mean | – | AUC(0-t) | 21.1 ng·h/mL |
| COc1cc(Nc2ncc(F)c(Nc3ccc4c(n3)NC(=O)C(C)(C)O4)n2)cc(OC)c1OC | ACAT | enzyme activity, inhibitor | liver | – | – | IC50 | > 10 µM |
| COc1cccc(C2(O)CCCCC2CN(C)C)c1 (stereo not shown) | – | joint PK model | human, whole blood | oral, one-compartment metabolite model | – | intercompartmental clearance | 0.0567 L/h |
| O=[N+]([O-])c1ccc(N2CCN(CCC(O)c3ccc(F)cc3)CC2)c(C(F)(F)F)c1 (stereo not shown) | Salmonella typhimurium | SOS/umu test | TA1535/pSK1002 | 0.008 mg/mL, 4 h, without S9, lower range | – | survival | 92.4% |
| [Cl-].[Cl-].[Pt+2].[Ru+2].c1ccc(-c2nccnc2-c2ccccn2)nc1.c1cnc2c(c1)ccc1cccnc12.c1cnc2c(c1)ccc1cccnc12 | Danio rerio | – | embryos | 45 µM, 48 h | – | hatching rate | 13 ± 6.2% |
| CC(C)CC(=O)OC[C@H]1O[C@@](C#N)(c2ccc3c(N)ncnn23)[C@H](O)[C@@H]1O | ABCB1 (Homo sapiens, UniProt P08183) | – | Caco-2 | 9 µM, 2 h | – | recovery A to B | 32.7% |
| O=c1ccc2ccccc2o1 | NHEK | cell count | – | concentration not given, 6 h, phospholipidosis and steatosis panel | – | chance response | 0.04% |
| Cc1cc2c(c(O)c1O)C(=O)c1c(O)cc(O)cc1C2=O | HepaRG co-cultured with HK-2 | MTT | – | 133.33 µM, 48 h | relative to: untreated control | cell viability | 73.4 ± 15.4% |
| COc1c(CCC[P+](c2ccccc2)(c2ccccc2)c2ccccc2)cc2c(c1OC)OCO2.[I-] | SK-MEL-28 | SRB | – | – | – | TGI | -4.83 log M |

Repeated from above:
| Compound | tested on | assay | system | setting | scale | measurement | value |
| --- | --- | --- | --- | --- | --- | --- | --- |
| COc1cc(CCC[P+](c2ccccc2)(c2ccccc2)c2ccccc2)c(OC)c2c1OCO2.[I-] | SK-MEL-2 | SRB | – | – | – | TGI | -4.98 log M |
| OC(CCN1CC=C(c2ccc(F)cc2)CC1)c1ccc(F)c2ccccc12 (stereo not shown) | Salmonella typhimurium | SOS/umu test | TA1535/pSK1002 | 0.125 mg/mL, 4 h, without S9, lower range | – | survival | 77.6% |
| CN1CCN(c2cc(-c3ccncc3)c(-c3ccc4ccccc4c3)nn2)CC1 | OPRD1 (Homo sapiens, UniProt P41143) | antagonist, FLIPR | – | 10 µM | – | inhibition | 6.1% |
| C#Cc1ccc2c(c1)C(c1ccccn1)=NCc1c(-c3cnco3)ncn1-2.Cl | – | thermodynamic equilibrium, UV | methanol | 24 h, 25 °C | – | solubility | 4650 µg/mL |
| CC1(C)[C@H](C=C(Cl)Cl)[C@H]1C(=O)OCc1cccc(Oc2ccccc2)c1 | human microsomal CES1 | IVIVE from expressed enzymes | human, 5 years old, expressed human CES1 | 0.1 µM | relative to: total hepatic CLint in vivo | relative enzyme contribution | 50.2% |
